Measured values from different studies.
Numbers after ± are the reported error.
UniProt P38646, sequence (whole entry, looked up): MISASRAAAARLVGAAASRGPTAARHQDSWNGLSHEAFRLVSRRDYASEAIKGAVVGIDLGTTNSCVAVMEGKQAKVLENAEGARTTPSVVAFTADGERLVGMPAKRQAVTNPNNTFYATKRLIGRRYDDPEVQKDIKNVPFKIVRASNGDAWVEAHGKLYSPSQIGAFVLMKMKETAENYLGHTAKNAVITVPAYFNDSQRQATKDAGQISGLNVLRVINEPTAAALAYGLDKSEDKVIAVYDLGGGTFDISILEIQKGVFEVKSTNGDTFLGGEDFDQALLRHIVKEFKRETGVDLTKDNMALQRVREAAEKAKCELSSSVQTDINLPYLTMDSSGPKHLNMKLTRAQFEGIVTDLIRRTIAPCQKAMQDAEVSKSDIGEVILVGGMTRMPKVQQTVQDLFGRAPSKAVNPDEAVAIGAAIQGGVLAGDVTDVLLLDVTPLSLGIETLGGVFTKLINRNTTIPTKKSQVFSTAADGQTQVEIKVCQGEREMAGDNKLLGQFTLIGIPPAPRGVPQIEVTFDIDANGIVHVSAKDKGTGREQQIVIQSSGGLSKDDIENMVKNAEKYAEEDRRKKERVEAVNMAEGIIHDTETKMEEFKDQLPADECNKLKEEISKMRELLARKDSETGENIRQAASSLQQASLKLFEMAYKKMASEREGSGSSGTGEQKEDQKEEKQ

For `CC(=O)c1c(C)c2cnc(Nc3ccc(C4CCN(CCS(C)(=O)=O)CC4)cn3)nc2n(C2CCCC2)c1=O`, the LOAEL was 350 mg/kg (rat; acute toxicity).
`Cn1nc(NS(C)(=O)=O)c2c(Cl)ccc(-n3c([C@H](Cc4cc(F)cc(F)c4)NC(=O)Cn4nc(C(F)F)c5c4C(F)(F)[C@@H]4C[C@H]54)nc4nc(OCCC(F)(F)F)ccc4c3=O)c21` — result for “participants with grade 2 LDL-C increase”: 10% (human; dose not given).
The maximum response of `Cc1ccc2nc(C3CCCN(Cc4cccc(-c5cccnc5)c4)C3)[nH]c(=O)c2c1` (stereo not shown) is reported as -8.21% (Vero-E6; CellTiter-Glo ATP; 72 h, retest 8-point duplicates; reference: DMSO 0%, hyamine -100%, more negative, more toxic).
`COc1ncccc1-c1cnn2ccc(N3CCN(C(=O)OC(C)C)CC3)nc12` gave a drug concentration of 1900 nM (mouse nerve ligation model, brain; oral, 3 mg/kg, 120 min after last dose, repeat dosing day 4).
For `CCc1ccc(CC/C=C/c2ccc3c(c2)C(=O)CC3)cc1`, “ALT serum activity” read 59.7 U/L (Sprague-Dawley rat, female; oral, 120 mg/kg/day, 14 days).
`CN1CC[C@@H](c2c(O)cc(O)c3c(=O)cc(-c4ccc(C(F)(F)F)cc4Cl)oc23)[C@@H]1CO` — result for “patients with adverse event”: 10% (measured: Hypertension; AML; oral, 200 mg, intermittent dosing).
`O=c1cc(-c2ccc(O)cc2)oc2c([C@@H]3OC[C@H](O)[C@H](O)[C@H]3O)c(O)c([C@@H]3O[C@H](CO)[C@@H](O)[C@H](O)[C@H]3O)c(O)c12`: heart rate “no effect” (HFpEF mice; oral, 20 and 40 mg/kg/day).
For `O=S(=O)(Nc1ccccc1)c1ccc(NC(=S)Nc2ccccc2)cc1`, “relative organ weight” read 1.64% (mouse, male, kidney; oral, 20 mg/kg daily, 14 days; reference: body weight).
For `Nc1ncnc2c1ncn2[C@@H]1O[C@@H]2COP(=O)([S-])O[C@@H]3[C@H](O)[C@@H](COP([O-])(=S)O[C@H]2[C@H]1O)O[C@H]3n1cnc2c(N)ncnc21.[Na+].[Na+]` (stereo partly shown), “mean platelet volume” read 5.78 ± 0.78 fL (non-tumor-bearing mice, blood; intravenous, 1 mg/kg, toxicity study).
`O=C(Nc1ccccc1)C1CCN(C(=O)Oc2cccnc2)CC1`: “change in Calm-excited score” -13 (Bond-Lader VAS; healthy women; 20 mg; reference: pre-dose baseline, direction not given).
`O=c1nc(NO)ccn1[C@@H]1O[C@H](CO)[C@@H](O)[C@H]1O` gave a bench-top stability of 97.3 ± 3.77% (rat amniotic fluid dialysate; 1000 ng/mL, 6 h, room temperature, high QC concentration, together with: molnupiravir).
`CC1CCCCN1CCCNC(=O)c1cc(Sc2cccc(Cl)c2)nc2ccccc12` (stereo not shown) gave a maximum response of -11.8% (Vero-E6; CellTiter-Glo ATP; 72 h, second round 5-point; reference: DMSO 0%, hyamine -100%, more negative, more toxic).
With `COc1ccc([C@@H]2CC(=O)c3c(O)cc(O)cc3O2)cc1O` the faecal excretion was 1640 ± 1090 ng (Sprague-Dawley rat, male, obese, faeces; oral, 100 mg/kg neohesperidin, 36-48 h).
`CC(C)(C)NCC(O)c1cc(O)cc(O)c1` (stereo not shown): “absorption rate constant” 2 h⁻¹ (human; oral).
With `COc1cc2c(Oc3ccc4[nH]c(C)cc4c3F)ccnc2cc1OCC1(N)CC1` the Appendicitis incidence was 0% (paediatric refractory sarcoma patients; 10 mg).
The relative abundance of `C[C@H]1CN(c2n[nH]c3nc(N[C@H]4CC[C@H](NS(=O)(=O)CCC(F)(F)F)CC4)ncc23)CCO1` is reported as 1.09 (Stress-70 protein, mitochondrial (HSPA9, Homo sapiens, UniProt P38646); inhibitor, Kinobeads competition profiling; 0.16 µM; reference: vehicle).
The HC10 of `CC[C@H](C)[C@H](NC(=O)[C@H](CC(C)C)NC(=O)[C@H](CCCCN)NC(=O)[C@@H](NC(=O)[C@H](C)NC(=O)[C@H](CCC(=O)O)NC(=O)[C@H](Cc1c[nH]cn1)NC(=O)[C@@H](NC(=O)[C@H](CCCCN)NC(=O)[C@H](CCC(N)=O)NC(=O)[C@H](Cc1ccccc1)NC(=O)[C@@H](NC(=O)[C@H](CCCCN)NC(=O)[C@@H](N)CCCCN)C(C)C)[C@@H](C)CC)[C@@H](C)CC)C(N)=O` is reported as 256 µM (hemolysis; mouse erythrocytes).
The basophils of `COc1ccc2nc3cc(Cl)ccc3c(Nc3cc(CN4CCCC4)c(O)c(CN4CCCC4)c3)c2n1` is reported as 1.51% (mouse, blood; intraperitoneal, 28 mg/kg).
`O=C(O)CCCOc1ccc(F)cc1-c1cc(-c2ccccc2C(F)(F)F)n(-c2ccccc2)n1` gave an organ weight of 0.48 ± 0.14 g (male Crl:CD(SD) rats, prostate; intravenous, 25 µg/kg, 14 d).
`COc1ncnn2ccc(-c3cnc4nc(C)n(Cc5nnc([C@@H](C)F)o5)c4c3)c12`: “incidence of Dehydration” 0% (human patients; oral, dose not given, grade 1 adverse drug reaction).
`CC(C)C[C@H](NC(=O)[C@H](CCCCN)NC(=O)OCC1c2ccccc2-c2ccccc21)C(=O)N[C@H](C(=O)N[C@@H](Cc1ccccc1)C(=O)N[C@@H](Cc1ccccc1)C(=O)N[C@@H](CCCCN)C(=O)NCC(=O)N[C@@H](Cc1ccccc1)C(=O)N[C@@H](C)C(=O)N[C@@H](Cc1c[nH]c2ccccc12)C(=O)N[C@@H](CC(N)=O)C(=O)N[C@H](C(=O)N[C@H]1CSSC[C@@H](C(=O)N[C@@H](Cc2c[nH]cn2)C(=O)N[C@@H](CCCNC(=N)N)C(=O)N[C@@H](CCCNC(=N)N)C(=O)N[C@@H](C)C(=O)N[C@@H](CC(N)=O)C(N)=O)NC(=O)[C@H](C(C)C)NC(=O)[C@H](CCCNC(=N)N)NC(=O)[C@H](C(C)C)NC(=O)CNC(=O)[C@H](CC(N)=O)NC(=O)[C@H](CCCNC(=N)N)NC(=O)[C@H](Cc2ccc(O)cc2)NC(=O)[C@H](C(C)C)NC1=O)C(C)C)C(C)C` gave a calcium of 1.34 ± 0.02 mmol/L (ICR mouse, blood; intramammary, 10 mg/kg, day 5, 3 d dosing).
`C[C@]12CC[C@@H]3c4ccc(O)cc4CC[C@H]3[C@@H]1CCC2=O` — result for “final permeate concentration”: 3.3 nM (ultrafiltration; cow milk whey; 200 nM nominal in whole milk).
`CCN(CCO)CCCC(C)Nc1ccnc2cc(Cl)ccc12` (stereo not shown) — result for “patients with adverse event”: 66% (measured: Headache grade 1; newly diagnosed glioblastoma patients; oral, 200 mg/dose, with radiotherapy and temozolomide).
Under “enzyme contribution to clearance”, `CC1(C)[C@H](C=C(Cl)Cl)[C@H]1C(=O)OCc1cccc(Oc2ccccc2)c1` is recorded as 0.04% (measured: CYP2B6; human, age 6 months, recombinant human CYP2B6; 0.1 µM).
`C[C@]1(CO)Cc2ncn(-c3ccc(C#N)c(Cl)c3)c2C(=O)O1` has a Tmax delay of 1 h (healthy subjects; oral, 10 mg, high-fat breakfast; reference: fasted).
For `CCN1[C@@H](C(=O)NC23CCC(C(=O)O)(CC2)CC3)[C@H](c2cccc(Cl)c2F)[C@]2(C(=O)Nc3cc(Cl)ccc32)C12CCCCC2`, the Myalgia incidence was 9.1% (patients with advanced solid tumours; oral, 100 mg).
`NCCCC[C@@H]1NC(=O)[C@@H](Cc2c[nH]c3ccccc23)NC(=O)[C@H](c2ccccc2)NC(=O)[C@@H]2C[C@@H](OC(=O)NCCN)CN2C(=O)[C@H](Cc2ccccc2)NC(=O)[C@H](Cc2ccc(OCc3ccccc3)cc2)NC1=O` — result for “QTcI change from baseline”: -0.4 ms (healthy volunteers; subcutaneous, 1950 µg twice daily, day 5, 8.00 h).
Under “any SAE incidence”, `CO[C@H]1C[C@@H]2CC[C@@H](C)[C@@](O)(O2)C(=O)C(=O)N2CCCC[C@H]2C(=O)O[C@H]([C@H](C)C[C@@H]2CC[C@@H](OC(=O)NCCOCCOCCOCCOCCOCCOCCOCCOCCC(=O)N3CCc4cc(Cn5nc(-c6ccc7oc(N)nc7c6)c6c(N)ncnc65)ccc4C3)[C@H](OC)C2)C[C@@H](O)[C@H](C)/C=C(\C)[C@@H](O)[C@@H](OC)C(=O)[C@H](C)C[C@H](C)/C=C/C=C/C=C/1C` is recorded as 50% (phase 1 dose escalation; advanced solid tumour patients; intravenous, 16 mg weekly, grade ≥3).

Excerpt of the above:
For `Nc1ncnc2c1ncn2[C@@H]1O[C@@H]2COP(=O)([S-])O[C@@H]3[C@H](O)[C@@H](COP([O-])(=S)O[C@H]2[C@H]1O)O[C@H]3n1cnc2c(N)ncnc21.[Na+].[Na+]` (stereo partly shown), “mean platelet volume” read 5.78 ± 0.78 fL (non-tumor-bearing mice, blood; intravenous, 1 mg/kg, toxicity study).
`COc1ncnn2ccc(-c3cnc4nc(C)n(Cc5nnc([C@@H](C)F)o5)c4c3)c12`: “incidence of Dehydration” 0% (human patients; oral, dose not given, grade 1 adverse drug reaction).
For `CC(=O)c1c(C)c2cnc(Nc3ccc(C4CCN(CCS(C)(=O)=O)CC4)cn3)nc2n(C2CCCC2)c1=O`, the LOAEL was 350 mg/kg (rat; acute toxicity).
The basophils of `COc1ccc2nc3cc(Cl)ccc3c(Nc3cc(CN4CCCC4)c(O)c(CN4CCCC4)c3)c2n1` is reported as 1.51% (mouse, blood; intraperitoneal, 28 mg/kg).
